Published values of several laboratories.
A part holds a random share of what one study measured.

Sample 1 — technique: RNA Bind-n-Seq; form: RNA; medium: in vitro; tested at: 365 nM; reference: no-protein control; direction: higher = stronger binding
Target: RNA binding protein fox-1 homolog 2, RRM domain, GST-SBP tag (RBFOX2, Homo sapiens, UniProt O43251-10, residues 100-194)
Setting: natural RNA segment, single round, ends assumed
Construct (chain): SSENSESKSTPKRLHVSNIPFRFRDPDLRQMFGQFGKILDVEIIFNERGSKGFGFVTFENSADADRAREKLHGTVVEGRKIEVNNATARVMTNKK
`GGGAGUUCUACAGUCCGACGAUCUGAGCGUGGAGUUGCCGUUCUGUGCACUGAUAAAGCUAGACUUUUCUCCAGUCCUCUUUCUGGAAUAGGAAACUCCCAAUAUUUAACCUUCAUUCAUCCUUAACGGUGUGUGGAAUUCUCGGGUGCCAA`: “RBNS enrichment (R)” 0.34.
`GGGAGUUCUACAGUCCGACGAUCUAAUCAGAGCAAGACAAAUGAGAGCAAAGCCCCAUGUGACUCCUCCUACUGCUGUGUUGUUUCAAACUUACCAGGUCCUCUGUCAGUUUCAGAGGUCACCUGUGAAGCAUUGGAAUUCUCGGGUGCCAA` — result for “RBNS enrichment (R)”: 0.286.
`GGGAGUUCUACAGUCCGACGAUCAUCACUUUUUCAAGGCUGGGUAGAGACAAGUUUCUCCUCGUAACUUUGACCUCUCCCACUCUCCAAAUGUAAUCUGGACCUCAUUGCUUUCAAGGUCAGCUUCCCCAUAGUGGAAUUCUCGGGUGCCAA`: “RBNS enrichment (R)” 0.487.
`GGGAGUUCUACAGUCCGACGAUCGAAUAAUGGAGAUUUUGUGUCUGCAAAAUUCCUGAGAUCAUUGAAAAAGUAACAAGCUGUUCCUUGUUUCUGAUACAUAAAAUUAUUUUAAGCAUUUUAUCAAUCAUUAAUGGAAUUCUCGGGUGCCAA`: “RBNS enrichment (R)” 0.931.

Sample 2 — technique: protein-binding microarray; form: double-stranded DNA, one strand shown; medium: in vitro; tested at: not given; direction: higher = stronger binding
Target: Protein max, full length (MAX, Homo sapiens, UniProt P61244-2, residues 1-151)
Setting: k-mer, scored over probes, only values ≥0.25
The E-score of `CAACACAC` is reported as 0.251.
`CACCCACA` gave an E-score of 0.253.
`CCAACCAC` has an E-score of 0.28.

Sample 3 — technique: RNA Bind-n-Seq; form: RNA; medium: in vitro; tested at: 20 nM; setting: 6-mer, flanks averaged, single round; together with: 150 mM KCl; reference: input library; direction: higher = stronger binding
Target: TAR DNA-binding protein 43, full length, His tag (TARDBP, Homo sapiens, UniProt Q13148, residues 1-414)
`AUAGUU`: “6-mer enrichment (R)” 0.598.
`UUACAA`: “6-mer enrichment (R)” 0.636.
`ACAAUG`: “6-mer enrichment (R)” 0.735.
`GAAUAC` — result for “6-mer enrichment (R)”: 0.662.
Under “6-mer enrichment (R)”, `AAUCCA` is recorded as 0.589.

Single results of other studies
For `PhoQ, residues 284 288 289 292 302 303 SNSSNI`, the fold induction was 3.22 (PhoP, residues 12 14 15 18 19 VQGLL (Escherichia coli, UniProt P23836); Sort-seq, measured: YFP reporter; E. coli; PhoQ-PhoP variant library, together with: 10 µM Mg2+; reference: high Mg2+ state, higher = stronger signaling).
